Measured values gathered from unrelated publications.
Numbers after ± are the reported error.

SMILES | assay | test system | conditions | AUC(0-t)
Oc1ccc([C@@H](O)c2cc(-c3ncnc4cc(N5CCOCC5)ccc34)c(F)cc2Cl)nn1 | geometric mean | healthy volunteers, plasma | oral, 100 mg, high-fat fed tablet | 401 ng·h/mL
COc1nnc2ccc(N3CCC(c4ccc(OCCN5CCN(C)C(=O)[C@H]5C)cc4)CC3)nn12 |  | patients, plasma | oral, 15 mg twice daily, single dose, monotherapy | 0.273 µM·h
N[C@@H](CC(=O)N1CCc2c(nc(C(F)(F)F)nc2C(F)(F)F)C1)CN1CC(F)(F)CCC1=O |  | healthy Korean adults, fasted, plasma | oral, 50 mg single dose, fixed-dose combination tablet, with: enavogliflozin 0.3 mg | 1330 ± 220 ng·h/mL
Cc1ccc2c(c1)C(=O)[C@]1(O)CCN(c3ccc4nc(C)ccc4c3)C1=N2.Cl |  | plasma | intravenous, 2 mg/kg | 4.46 ± 0.14 µM·h
COc1c(O)cc(C(=O)O)cc1O | LC-MS/MS | male Ross broilers, serum | oral, 0.49 mg/kg gallic acid, 6 h | 0.44 ± 0.27 µM·h
C[C@@](Cc1ccc(O)c(O)c1)(NN)C(=O)O |  | Parkinson's disease patients, plasma | oral, dose not given, 3 h, high levodopa Cmax subgroup (≥9 µmol/L), median | 0.66 µM·h
CC[C@H](Nc1ncnc2[nH]cnc12)c1oc2ccccc2c(=O)c1-c1cccc(F)c1 |  | patients, Cohort-2, plasma | oral, 600 mg twice daily, with: romidepsin 12 mg/m2 | 11300 ± 2260 ng·h/mL
C[C@@H](N)C1CCN(S(=O)(=O)c2cccc3cnccc23)CC1 |  | healthy volunteers, fasted, plasma | oral, 250 mg | 76.5 ng·h/mL
CS(=O)(=O)c1ccc([C@@H](O)[C@@H](CF)NC(=O)C(Cl)Cl)cc1 |  | Arbor Acres chickens, plasma | oral, 20 mg/kg, with: quercetin 40 mg/kg pretreatment | 43100 ± 1530 ng·h/mL
OC[C@H]1O[C@@H](c2cc(Cc3ccc(C4CC4)cc3)c(Cl)c3c2CCO3)[C@H](O)[C@@H](O)[C@@H]1O |  | healthy Korean adults, fasted, plasma | oral, 0.3 mg single dose, fixed-dose combination tablet, with: co-administered drug 50 mg | 31.9 ± 10.6 ng·h/mL
CO[C@H]1CC[C@H](N2C(=O)CNc3ncc(-c4ccc(C(C)(C)O)nc4)nc32)CC1 |  | patients, plasma | oral, 30 mg, day 15, geometric mean | 1020 ng·h/mL
CCCS(=O)(=O)N[C@H]1C[C@@H](N(C)c2ncnc3[nH]ccc23)C1 |  | healthy volunteers, plasma, total | oral, 100 mg single dose, alone | 1550 ng·h/mL
C=CC(=O)NC1CCN(c2ncc3ncnc(Nc4ccc(Oc5ccc6c(c5)ncn6C)c(C)c4)c3n2)CC1 |  | healthy men | oral, 60 mg single dose, with: carbamazepine | 4.43 µM·h
N[C@@H](Cc1ccc(O)c(O)c1)C(=O)O |  | Parkinson's disease patients, plasma | oral, dose not given, 3 h, low carbidopa AUC subgroup (11.5 µmol·h/L), median | 8.43 µM·h

For quick reference, copied from above:
SMILES | assay | test system | conditions | AUC(0-t)
COc1nnc2ccc(N3CCC(c4ccc(OCCN5CCN(C)C(=O)[C@H]5C)cc4)CC3)nn12 |  | patients, plasma | oral, 15 mg twice daily, single dose, monotherapy | 0.273 µM·h
N[C@@H](CC(=O)N1CCc2c(nc(C(F)(F)F)nc2C(F)(F)F)C1)CN1CC(F)(F)CCC1=O |  | healthy Korean adults, fasted, plasma | oral, 50 mg single dose, fixed-dose combination tablet, with: enavogliflozin 0.3 mg | 1330 ± 220 ng·h/mL
